Measurements collected from several papers.
A part holds a random share of what one study measured. Positions count from the first letter of the parent shown.

Study 1 — target: CREBRF, bZIP domain (human); method: DHFR protein complementation; medium: yeast; reference: wild-type JUN-FOS pair; direction: higher = stronger binding
Notes: single substitutions, most at no-binding floor
Parent: JUN, bZIP domain (human); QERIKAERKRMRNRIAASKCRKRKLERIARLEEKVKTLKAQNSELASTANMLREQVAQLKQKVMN; partner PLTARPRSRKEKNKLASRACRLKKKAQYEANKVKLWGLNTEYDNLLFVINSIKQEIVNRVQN
Substitution	binding fitness [natural log]
A57C	-1.36
I28F	-1.4
I28S	-1.5
R30S	-1.36
V56A	-1.41
E54T	-1.37
E32V	-1.46
S43Q	-1.37
T48H	-1.47
S47H	-1.43
E32G	-1.35
E32A	-1.49
S47W	-1.49
L45R	-1.51
S47Y	-1.27
I28R	-1.37
E32L	-1.4
A40G	-1.5
K36G	-1.4

Study 2 — method: RNA Bind-n-Seq; form: RNA; medium: in vitro; concentration: 20 nM; notes: 6-mer, flanks averaged, single round; together with: 150 mM KCl; reference: input library; direction: higher = stronger binding
Target: TAR DNA-binding protein 43, full length, His tag (TARDBP, Homo sapiens, UniProt Q13148, residues 1-414)
Sequence	6-mer enrichment (R)
UGGACU	0.816
AUCAGG	0.981
UGUAAC	0.65
CUUAUG	0.638
GCUGUG	1.36
CGCACU	0.652
GAGGAA	1.65
CUAAUU	0.613
GACAGC	0.944
AGACAU	0.639
AUUUUG	0.719
CUUUGC	0.62
CCAUAU	0.598
UGGCAU	0.818
GGACAU	0.998
UCCAAA	0.6
CUGCAG	0.862
GUAGUG	1.53
AUACAA	0.651
AUCUCC	0.572
AAUACA	0.649
AGAGCC	0.828
AUAUGC	0.664
CCGUCU	0.587
AGUCGC	0.797

Study 3 — method: aptamer microarray, sandwich; form: DNA with 2'F-ANA; medium: in vitro; concentration: 200 nM; together with: Cy3 exosite-II aptamer, 400 nM; direction: higher = stronger binding; sequence: GGTTGGTGTGGTTGG
Target: Prothrombin, mature alpha-thrombin (F2, Homo sapiens, UniProt P00734)
Notes: whole 15-mer aptamer, many near background
Modification	mean fluorescence intensity [a.u.]
2'F-ANA at 2 3 8 9 11 14 15	386
2'F-ANA at 1 2 3 4 5 7 8 9 10 11 12 15	84.7
2'F-ANA at 2 4 8 10 11 14	60.8
2'F-ANA at 1 3 4 10 13	53.4
2'F-ANA at 2 3 6 7 8 9 10 12 13	366
2'F-ANA at 9 10 11 12 13 14 15	102
2'F-ANA at 2 3 4 5 8 9 13 14	51.3
2'F-ANA at 3 4 5 9 12 13 14 15	51.6
2'F-ANA at 3 4 7 9 12 13 15	708
2'F-ANA at 1 9 10 12 13 15	74.7
2'F-ANA at 2 4 5 6 9 12 15	120
2'F-ANA at 1 5 7 8 10 11 12 13	47.3
2'F-ANA at 1 2 4 5 7 8 10 11 12 14	47.7
2'F-ANA at 1 2 7 9 14	53.6
2'F-ANA at 2 3 4 8 10 11 13 15	195
2'F-ANA at 4 5 8 12 13 15	99
2'F-ANA at 2 3 6 9 12 14	419
2'F-ANA at 2 8 9 11 12 14	240
2'F-ANA at 1 4 7 10 12 15	124
2'F-ANA at 2 3 7 8 9 10 13 14	302
2'F-ANA at 2 3 4 5 8 11 12 14 15	57.7
2'F-ANA at 6 7 10 12 13 14 15	126
2'F-ANA at 1 2 4 5 7 10 14	51.8
2'F-ANA at 4 5 6 7 9 12 13 14	48.3
2'F-ANA at 2 3 7 8 10 13 14	316

Study 4 — method: DHFR PCA, deep sequencing; medium: yeast; together with: (+)-ABA 17 µM; reference: wild-type fitted maximum; direction: higher = stronger binding
Target: ABI1, truncated, D143A, DHFR fusion (Arabidopsis thaliana)
Notes: methotrexate growth selection, single substitutions
Parent: PYL1, truncated, DHFR fusion (Arabidopsis thaliana); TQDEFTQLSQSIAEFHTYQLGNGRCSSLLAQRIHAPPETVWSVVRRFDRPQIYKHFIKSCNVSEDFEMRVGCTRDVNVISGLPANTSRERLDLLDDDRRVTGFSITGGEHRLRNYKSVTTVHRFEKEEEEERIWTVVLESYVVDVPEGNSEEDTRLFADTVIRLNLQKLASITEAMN; partner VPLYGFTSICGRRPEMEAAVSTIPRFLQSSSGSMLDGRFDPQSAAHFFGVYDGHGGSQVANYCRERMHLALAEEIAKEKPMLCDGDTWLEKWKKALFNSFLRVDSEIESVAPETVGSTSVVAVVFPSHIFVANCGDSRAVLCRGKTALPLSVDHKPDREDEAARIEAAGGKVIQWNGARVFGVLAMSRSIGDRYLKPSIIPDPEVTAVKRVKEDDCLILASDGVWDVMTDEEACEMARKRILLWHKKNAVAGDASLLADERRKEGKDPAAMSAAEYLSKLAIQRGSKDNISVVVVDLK
Substitution	relative binding score
D95M	45.1%
N165P	7.83%
D96E	92.3%
G148C	36.8%
F56Q	15.2%
P83Y	-10.4%
K126Q	90.3%
E139I	70.6%
I162S	0.75%
R45N	-7.6%
D95V	12.2%
S59G	68.4%
L156H	72.7%
D75R	75.9%

Study 5 — method: RNA Bind-n-Seq; form: RNA; medium: in vitro; concentration: not given; notes: RNA with constant flanks, ends assumed; reference: input RNA pool; direction: higher = stronger binding
Target: RING finger protein unkempt homolog, zinc fingers 1-6, GST-SBP tag (UNK, Homo sapiens, UniProt Q9C0B0, residues 30-357)
Shared flanks, not repeated: GGGAGUUCUACAGUCCGACGAUC … CAACAGAGGAUUGAGCAUCA
Residues (chain): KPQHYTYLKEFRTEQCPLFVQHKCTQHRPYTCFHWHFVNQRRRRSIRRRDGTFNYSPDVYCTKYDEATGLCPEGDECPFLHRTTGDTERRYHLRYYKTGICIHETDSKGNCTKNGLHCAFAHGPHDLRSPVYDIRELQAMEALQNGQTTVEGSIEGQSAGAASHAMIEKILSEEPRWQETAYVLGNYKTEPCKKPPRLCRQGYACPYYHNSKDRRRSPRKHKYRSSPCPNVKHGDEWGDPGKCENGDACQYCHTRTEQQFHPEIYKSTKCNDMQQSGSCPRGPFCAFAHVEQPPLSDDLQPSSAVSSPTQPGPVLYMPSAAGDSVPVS
Sequence	bound/input enrichment [ratio]
UACAGCUUGCCUUUUUAAUGUUAGUCACAAUGUUUUUGUGGUUUGAAGUUUAGUUUAAUGUCCGUGCAGUGACAGGAAAUACACAUUAUGCUGAUGUUGAUGACAGAAUUUAUUUGGUUG	0.597
CUUCGGAAUGCACUACAACAGGAAAAUCAUAUUAUAGAUGGAGUAAAGGUCCAGGUUCACACCCGAAGGCCAAAACUUCCGCAAACAUCUGAUGAUGAAAAGAAAGAUUUUUGAGACUGC	0.179
CUCAGUGAUCAUACACGGAACUCUGCUGAAGGUACAGAAUAUUUCAAAAUGCUUGCCGAUGUUUUUGCUCCAGAAUUUCGAAGGCCAAAGAAUAUACAUCUCCGAAAUUUCUAUAUCAUU	0.143
CCCCACAUACCAUCUGUAGAGUUGGAACUGCAUUCUUUUAAAGUUUUAUAUGCAUAUAUUUCCGGGCUGUAGACUUACUUUCCUAUUUUCUUUUCCAUUGCUUAUUCUUGAGCACAAAAU	1.01
UCUGAUGACUUUAAUUUUAAAAUCUUGUGACAUUUUGCUUAUACUAAAAGUUAUCUAUCUUCCGUUGAAUAUUUUCUUUUGGAGAGAUUGUAUAUUUUAAAAUACUGUUUAGAGUUUAUG	0.454
AAACUGUUCUACAGUGCAAAGAACACCAGCGAGCUCCUGUUUAAGAAAGAUAUCCUCGACUCCGUACAUGAAUUCCCUGAGAAGAUUUCUUGCAGUUUUCAUGUUACAAAACAGACAGCA	0.139
CUCCGAUUUGGAAAAACUAAACAUCUCUCCUGGAGUUCUGGGCAGAGAGAAAACCAGCCGUCAUUUUCUUCGGAACUGUGGAAUGUACCCUUGGGAGUCCCACAAAUCAGGCAGAAGAUG	0.134
AACAAUGAUAUUAGUAGUCUGCCCUGCUCAUUGGGAAAUCUUCAUUUGAAAUUCCUGGCACCCGAAGGAAAUCCUCUAAGAACCAUUCGAAGAGAAAUUAUAGCUAAAGGAACUCAAGAA	0.304
UUUGCUGAACUGGAUAAAGUAAUGGGCCCUCUCAUCUUUAAUGCAAGCAUCAUGACAGAUCCCGUUCGUUAUACCCGGCAGGGACUGCACUGGCUUCGCCAGGAUGCCAAGUUGAUAUCU	0.174
GGACCAUAAUCAUGGUGGACAUGAUGGACUUGCCCAGGUCGCGCAUCAACGCCGGCAUGCCCGCUCAAUUCAUCGACAAGCCUGUCUGCUUCGUAGGGAGGCUGGAAAAGAUUCAUCCCA	0.0807
GCUGUGACCCAGAAUAAAACUAAUAUUUCAACAGCAAGUGCCACAGUUUCUGCUGCCACCCGUACUGAAAGCAUUUCUACUAGGAAAGUAUUGCCAAUGUCCAUUGCUAGACAUAAUAUA	7.51

Study 6 — target: CCNF, cyclin fold, Cln2 fusion (human); method: yeast growth competition, sequencing; medium: yeast; notes: weak parent motif; reference: not given; direction: higher = stronger binding
Parent: CDC42EP1 docking peptide (human); SLVVGKLSFDSSP
Substitution	normalised enrichment score
S12A	0.0719
F9A	-1.07
V3A	-0.101
S11A	0.334
K6A	-0.526
P13A	-0.0733
L7A	-0.0838

Mixed results
Molecule	target	test	system	setting	scale	quantity	value
PhoQ, residues 284 288 289 292 302 303 TNASYF	PhoP, residues 12 14 15 18 19 LHTVM (Escherichia coli, UniProt P23836)	Sort-seq, measured: YFP reporter	E. coli	PhoQ-PhoP variant library, together with: 10 µM Mg2+	reference: high Mg2+ state, higher = stronger signaling	fold induction	12.6
